Measured values pooled from the literature.
Target: Tyrosine-protein kinase ITK/TSK (ITK, Homo sapiens, UniProt Q08881)
Residues used in one study (Q08881 1-620): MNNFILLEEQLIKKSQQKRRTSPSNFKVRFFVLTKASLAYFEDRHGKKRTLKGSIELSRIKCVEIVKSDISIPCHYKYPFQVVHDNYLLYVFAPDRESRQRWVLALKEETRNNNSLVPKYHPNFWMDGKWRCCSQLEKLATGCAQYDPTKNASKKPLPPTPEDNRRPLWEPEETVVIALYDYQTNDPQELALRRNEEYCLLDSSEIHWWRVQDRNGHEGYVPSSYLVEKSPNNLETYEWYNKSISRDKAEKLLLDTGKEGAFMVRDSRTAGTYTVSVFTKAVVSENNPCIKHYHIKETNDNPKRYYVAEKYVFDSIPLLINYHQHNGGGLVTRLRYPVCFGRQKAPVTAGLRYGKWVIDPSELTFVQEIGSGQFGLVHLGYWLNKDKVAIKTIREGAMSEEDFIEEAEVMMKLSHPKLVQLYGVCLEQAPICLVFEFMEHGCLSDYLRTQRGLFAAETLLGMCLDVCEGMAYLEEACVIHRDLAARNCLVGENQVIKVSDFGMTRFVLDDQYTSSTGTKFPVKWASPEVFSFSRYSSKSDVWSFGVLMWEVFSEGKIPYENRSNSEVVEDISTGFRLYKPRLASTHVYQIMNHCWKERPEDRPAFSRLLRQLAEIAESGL

Structure (SMILES) | test | setting | scale | measurement | result
Cc1cnc2nc1Nc1cccc(c1)COC/C=C/COCc1cc(ccc1OCCN1CCOCC1)N2 | cell-free assay | 0.1 µM |  | remaining signal | 90%
Cc1cccc(O[C@H]2CCC[C@@H](C(C)CNCc3ccncc3)C2)c1 (relative stereo) | kinase activity, kinome panel screening | 1 µM |  | inhibition | 1%
C=CC(=O)Nc1cccc(-c2cnc3[nH]cc(C(=O)NC(C)(C)C)c3n2)c1 | enzyme activity, inhibitor | 0.1 µM |  | inhibition | 58%
CC(C)=CC1OC(C)(C)C2C=C3C(=O)C(Cl)=CC(O)C3C3C(O)C4OC4C(=O)C132 (centres unmarked) | cell-free assay, competition with immobilised ligand | 10 µM |  | remaining binding | 90%
CN1CC[C@@H](COc2cnc(C#N)cc2-c2ccn3nc(NC(=O)C4CC4)cc3c2)C1 | enzyme activity, inhibitor | 1 µM |  | inhibition | 6%
COc1c(OCCCN2CCOCC2)ccc2c1N=C(NC(=O)c1cnc(N)nc1)N1CCN=C21 | kinase activity, inhibitor | 1 µM | reference: untreated control | remaining activity | 105%
C[C@H]1CN(C(=O)c2cn(-c3ccnc(N)n3)c3cc(C#CC4(O)CCCCC4)ccc23)CCN1 | enzyme activity, inhibitor, FRET | 1 µM |  | inhibition | 8%
COc1cc(Nc2nccc(-c3cnn4nc(OC)ccc34)n2)cc(C(F)(F)F)c1 | binding, competition with immobilised ligand | 1 µM |  | remaining binding | 95%
O=C=[N][Ru-4]123([n]4c5ccc(O)cc5c5c6c(c7cc(F)c[n+]1c7c54)C(=O)NC6=O)[S+]1CC[S+]2CC[S+]3CC1 (centres unmarked) | enzyme activity | 100 nM, human enzyme, added: 10 µM ATP | reference: untreated | remaining activity | 96%
CNC(=O)C[C@H](Cc1ccc(C#N)cc1)NC(=O)c1cc(-c2ccc(CN[C@H](C)c3ccc(C)cc3)o2)ccc1Cl | enzyme activity, inhibitor | 1 µM |  | activity vs control | 105%
CCn1cc(C(=O)O)c(=O)c2c(N)c(F)c(NC3CCCCC3)cc21 | kinase activity | 0.1 µM, added: ATP at Km |  | inhibition | 5.4%
COc1cc(-n2cc3cc(F)cc(C(N)=O)c3n2)cc(Cl)c1C1CC(O)(CCO)Cc2ccccc21 (centres unmarked) | enzyme activity, inhibitor | 10 µM |  | inhibition | 7.97%
CCN1CCN(Cc2ccc(C(=O)Nc3ccc(C)c(NCc4cnc5[nH]ccc5c4OC)c3)cc2C(F)(F)F)CC1 | binding, competition with immobilised ligand | 1 µM |  | remaining binding | 100%
CN1CCN(Cc2ccc(-c3ccc(CO[C@H]4CCC[C@@H]4NC(=O)c4cc(-c5cnn(C)c5)cnc4N)cc3)cc2)CC1 | enzyme activity, inhibitor | 0.1 µM |  | inhibition | -5%
Cc1ccc(-c2c(/C=C(\C#N)C(=O)NC(C)C)n(CCCO)c3ncnc(N)c23)cc1 | cell-free assay, competition with immobilised ligand | 1 µM |  | remaining binding | 76%
NC(=O)[C@@H](O)C[C@H]1CCc2sc3ncnc(O[C@H]4CC[C@H](N5CCOCC5)CC4)c3c21 | enzyme activity, inhibitor | 10 µM |  | inhibition | 46%
Nc1ncc2c(n1)-c1c([nH]c3ccc(C4=CCOCC4)cc13)CCC2 | binding, competition with immobilised ligand | 1 µM |  | remaining binding | 100%

Repeated from above:
Structure (SMILES) | test | setting | scale | measurement | result
O=C=[N][Ru-4]123([n]4c5ccc(O)cc5c5c6c(c7cc(F)c[n+]1c7c54)C(=O)NC6=O)[S+]1CC[S+]2CC[S+]3CC1 (centres unmarked) | enzyme activity | 100 nM, human enzyme, added: 10 µM ATP | reference: untreated | remaining activity | 96%
